Assay results of several laboratories.
Lines come from different studies, so protocols differ.
Technique: steady-state kinetics
B1: enzyme H130A (Salinispora arenicola, UniProt A8M783); chain MASTPWISFTTDYGLADGFVAACHGVLARLAPTARVIDVTHLVPPGDVRRGAAVLAQTVPYLPAAVHVAVVDPGVGTARRAIALTAGNGLLVGPDNGLLLDAATALGGVDAAVELTNPDWLGARMSATFAGRDVFAPVAARLALGAPLADAGPAVEPGALVRLPTPLVQPETDGFTAEVLTVDHFGNVQLAATGALLESLPRSLRVAHRPAVHARTFDDAPPGGLLVHVDSAGLVAVAVNGGRAADLLAVTPGDQLRVTAG
B2: enzyme (Nicotiana tabacum, UniProt A0A1S3XCJ5); chain MLPQLSNSSGSGYSWMQDNSASCGNFSRNGRKQGPLNSVAPTERAQISSVDDLYDFICSGPLINKIGLTPEKVAESIDKWIEYGFRLCRLFQLNQLALNEPQKIRLYHYYIPVFLWCEQEISQHSSKFKDNEEIPPLVIGFSAPQGCGKTTLVFALEYLFKITGRKAATLSIDDFYLTAEEQAKLRENNPGNLLLEFRGNAGSHDLSLSVETLAELSKVTKEGVKMKLPRYDKSAYNGRGDRADPSTWPEVEGPLTVILFEGWMLGFKPLPPEAVKAVDPQLETVNKNLEAYYDAWYKYVKSWIIIKIHDPSYVYQWRLQAEIAMRADGNPGMSDEEVRDFVSRYLPAYKAYLPTLYSEGPTGADPEHVLLVEIDEGRNPILGS
B3: enzyme (Lactiplantibacillus plantarum, UniProt Q06115); chain CTAITYQSYNNYFGRNFDYEISYNEMVTITPRKYPLVFRKVENLDHHYAIIGITADVESYPLYYDAMNEKGLCIAGLNFAGYADYKKYDADKVNITPFELIPWLLGQFSSVREVKKNIQKLNLVNINFSEQLPLSPLHWLVADKQESIVIESVKEGLKIYDNPVGVLTNNPNFDYQLFNLNNYRALSNSTPQNSFSEKVDLDSYSRGMGGLGLPGDLSSMSRFVRAAFTKLNSLSMQTESGSVSQFFHILGSVEQQKGLCEVTDGKYEYTIYSSCCDMDKGVYYYRTYDNSQINSVSLNHEHLDTTELISYPLRSEAQYYAVN
B4: CYP4F3 A27G/C46R/I34V/M14V/R49Q/W12G (Homo sapiens, UniProt Q08477); chain MALLLAVFLLGPVAASPWLLLLLVGGSWLLARVLAWTYTFYDNCRRLQCFPQPPKRNWFLGHLGLVTPTEQGMRVLTQLVATYPQGFKVWMGPIFPVIRFCHPNIIRSVINASAAIVPKDKVFYSFLKPWLGDGLLLSAGEKWSRHRRMLTPAFHFNILKPYMKIFNESVNIMHAKWQLLASEGSARLDMFEHISLMTLDSLQKCVFSFDSHCQEKPSEYIAAILELSALVTKRHQQILLYIDFLYYLTPDGQRFRRACRLVHDFTDAVIQERRRTLPSQGVDDFLQAKAKSKTLDFIDVLLLSKDEDGKKLSDEDIRAEADTFMFEGHDTTASGLSWVLYHLAKHPEYQERCRQEVQELLKDREPKEIEWDDLAQLPFLTMCIKESLRLHPPVPAVSRCCTQDIVLPDGRVIPKGIICLISVFGTHHNPAVWPDPEVYDPFRFDPKNIKERSPLAFIPFSAGPRNCIGQAFAMAEMKVVLGLTLLRFRVLPDHTEPRRKPELVLRAEGGLWLRVEPLS
B5: enzyme T248A (Glycine max, UniProt I1LJ26); chain MMELFLSCMVLFVLTLATLGAHWIWVVSSSRAGSKLPPGPFPLPIIGNLLALGKKPHQSLAKLAETHGPIMTLKFGQVTTIVVSSADMAKEVLLTHDHSLSSNRVIPQAVQVHNHHNHSITFLPVSPLWRDLRKICIANLFSNKTLDASQDLRRSKLHQLLHDIHRSSLAGEAVDVGKAVFNTSMNLLSNTFFSLDLVHSSSSAAAVDFKDLVLKIMEESGKPNLADFFPVLKFMDPQGIKTRTTVYAGKIIDTFRALIHQRLKLRENNHGHDTNNDMLNTLLNCQEMDQTKIEHLALTLFVAGTDTITSTVEWAMAELLQNEKAMSKAKQELEETIGRGKAVEESDIGRLPYLQAVIKETFRLHPAVPFLIPRKANADVEISGGYTIPKDAQVFVNVWAIGRNSSIWKNNANVFSPERFLMDSEDIDVKGHSFELTPFGAGRRICLGLPLAMRMLYLVLGSLINCFNWKLVEDDDVMNMEDSFGITLAKAQPVILIPEKVHGVIVS
B6: enzyme (Thermotoga maritima, UniProt Q9WXS3); chain MRLNRETIKDRAAWEKIGVRPPYFDLDEVEKNTKEQPKWVHFGGGNIFRGFVAAVLQNLLEEGKEDTGINVIELFDYEVIDKVYKPYDNLSIAVTIKPDGDFEKRIIASVMEALKGDPSHPDWERAKEIFRNPSLQLASLTITEKGYNIEDQAGNLFPQVMEDMKNGPVSPQTSMGKVAALLYERFKAGRLPIALLSLDNFSRNGEKLYSSVKRISEEWVKSGLVEKDFIDYLEKDVAFPWSMIDKIVPGPSEFIKEHLEKLGIEGMEIFVTSKRTHIAPFVNMEWAQYLVIEDSFPNGRPKLEGADRNVFLTDRETVEKAERMKVTTCLNPLHTALAIFGCLLGYKKIADEMKDPLLKKLVEGVGEEGIKVVVDPGIINPREFLNEVINIRLPNPYLPDTPQRIATDTSQKMPIRFGETIKAYHERPDLDPRNLKYIPLVIAGWCRYLMGIDDEGREMQLSPDPLLENLRSYVSKIKFGDPESTDDHLKPILSSQQLFRVNLYEVGLGEKIEELFKKMITGPRAVRKTLEEVVGREDG
B7: enzyme C434A (Methanosarcina mazei, UniProt Q8PVB1); chain MSEQRSVPLREHLLALKPCRHGGLIQETSETYGIPENEILDFSANFNPLGSPFDYPENGLNFEDIIKKSCGKLLEYPDNRYVEFREAAARFVGLGVTPQSIVPGNGSTEIVRLVVESVIEKGDKVLLPWPTFGEYEMQCRITGAEPVCPSQEEVNTLPDEVLEEAKILFICNPNNPTGKLRTREELKVLAERCREHKTLLYVDEAFIELSDPSQSVADLPAENNYVFVMRSLTKDFAIPGIRMGFGIAPPAMADILNTARLSWNLGAIANNTGIALLNIEGGIDSPYLKKAREMILKEGETLKAKIDRIRGFEAGEVNVNFILVDVSKFMLNSSELTARLAARGVLVRDCVSFHGLGKNYIRVAVRTEKENDRLIAAIGDVITEWGREQAKNELQHVIEKASEEGIGGRKTCEYYPCHFEGQNCTFCFCPFYPAENEKTGGKWIQSSRGGRVWSCVDCHLVHKKEIAQKILDCLMHEGDTDELVKVAWKEVMEPIL
B8: efeB (Bacillus subtilis, UniProt P39597); chain IGASGLGGLAPLVQTAAKPSKKDEKEEEQIVPFYGKHQAGITTAHQTYVYFAALDVTAKDKSDIITLFRNWTSLTQMLTSGKKMSAEQRNQYLPPQDTGESADLSPSNLTVTFGFGPGFFEKDGKDRFGLKSKKPKHLAALPAMPNDNLDEKQGGGDICIQVCADDEQVAFHALRNLLNQAVGTCEVRFVNKGFLSGGKNGETPRNLFGFKDGTGNQSTKDDTLMNSIVWIQSGEPDWMTGGTYMAFRKIKMFLEVWDRSSLKDQEDTFGRRKSSGAPFGQKKETDPVKLNQIPSNSHVSLAKSTGKQILRRAFSYTEGLDPKTGYMDAGLLFISFQKNPDNQFIPMLKALSAKDALNEYTQTIGSALYACPGGCKKGEYIAQRLLES
B9: PDE10A (Homo sapiens, UniProt Q9Y233); chain MASLEEPLAPRPQGPLPAAGDEPGCGPGKLRPEPRLSAAGGGSAAGPGPAPEWPGRGRAERAAPPRPPLSSAGRPSPAGGPGALSARGGGCGWVAARAPLALAFSSRVPSSSPSFFYFWPPPPPPPPSFLPSSSAFHLPVRLPGREGAAAAAAAGGGGDAGGGGGGGQEAAPLSVPTSSSHRGGGGSGGGRRRLFLSPALQGLLLPARAGPRPPPPPRLPLGQAARRAGSPGFPGAGPGGGGQTPRRPQGASFALAAAAALLFGSDMEDGPSNNASCFRRLTECFLSPSLTDEKVKAYLSLHPQVLDEFVSESVSAETVEKWLKRKNNKSEDESAPKEVSRYQDTNMQGVVYELNSYIEQRLDTGGDNQLLLYELSSIIKIATKADGFALYFLGECNNSLCIFTPPGIKEGKPRLIPAGPITQGTTVSAYVAKSRKTLLVEDILGDERFPRGTGLESGTRIQSVLCLPIVTAIGDLIGILELYRHWGKEAFCLSHQEVATANLAWASVAIHQVQVCRGLAKQTELNDFLLDVSKTYFDNIVAIDSLLEHIMIYAKNLVNADRCALFQVDHKNKELYSDLFDIGEEKEGKPVFKKTKEIRFSIEKGIAGQVARTGEVLNIPDAYADPRFNREVDLYTGYTTRNILCMPIVSRGSVIGVVQMVNKISGSAFSKTDENNFKMFAVFCALALHCANMYHRIRHSECIYRVTMEKLSYHSICTSEEWQGLMQFTLPVRLCKEIELFHFDIGPFENMWPGIFVYMVHRSCGTSCFELEKLCRFIMSVKKNYRRVPYHNWKHAVTVAHCMYAILQNNHTLFTDLERKGLLIACLCHDLDHRGFSNSYLQKFDHPLAALYSTSTMEQHHFSQTVSILQLEGHNIFSTLSSSEYEQVLEIIRKAIIATDLALYFGNRKQLEEMYQTGSLNLNNQSHRDRVIGLMMTACDLCSVTKLWPVTKLTANDIYAEFWAEGDEMKKLGIQPIPMMDRDKKDEVPQGQLGFYNAVAIPCYTTLTQILPPTEPLLKACRDNLSQWEKVIRGEETATWISSPSVAQKAAASED
B10: enzyme K56A (Nitrosopumilus maritimus, UniProt A9A5X4); chain MDSQKFDSIIFDCDGVLVDITQSYDKTIDKTCRYVLKEFAKIDSITIDHKIIDGFASSGGFNDEVDLVYAAILSLYTANKLNKKPSEFIYDVISNTDKTGIRSVQSYLESIYDVSEFLSKLGSLGDRHNNPVYSIFDQFFFGPELYGKLFDKQSKFSEEGMISNDKVILSVSLLETLQKEFGKKIAVVTGRGIESIRYSLKDMMDYFDTKNSAFLEDEPRELAKPNPATLIRAIQSMESKNCLYVGDSMEDYMMAKDAAQAGHSTTFCAIVGTSTNPEDRRKLFADSGVEMILESINDIPKVLNLV

B1 (enzyme H130A)
Km (C[S+](CC[C@H](N)C(=O)O)C[C@H]1O[C@@H](n2cnc3c(N)ncnc32)[C@H](O)[C@@H]1O; pH 7.9, 37 °C, apparent, with: 1-200 µM SAM): 1.4 µM

B2 (enzyme)
Km (O=C(O)[C@H](O)CO; pH 7.8, 30 °C): 410 µM

enzyme (UniProt A0A097IUD8)
Km (C=C(OP(=O)(O)O)C(=O)O; pH 6, 25 °C, with: 2 mM ADP): 1330 µM

enzyme (Klebsiella pneumoniae, UniProt A6THV5)
Km (CSCC[C@@H](NC(C)=O)C(=O)O; pH 8, 35 °C): 32100 µM

enzyme (Acinetobacter baumannii, UniProt B7I618)
Km (Nc1ncnc2c1ncn2[C@@H]1O[C@H](COP(=O)(O)OP(=O)(O)OP(=O)(O)O)[C@@H](O)[C@H]1O; pH 7.4, 24 °C, apparent): 41.9 µM

B3 (enzyme)
Km (C[C@H](CCC(=O)NCC(=O)O)[C@H]1CC[C@H]2[C@@H]3[C@H](O)C[C@@H]4C[C@H](O)CC[C@]4(C)[C@H]3C[C@H](O)[C@]12C; pH 6.2, 37 °C): 1300 µM

enzyme (Schizosaccharomyces pombe, UniProt P78804)
Km (NC(=O)C1=CN([C@@H]2O[C@H](COP(=O)(O)OP(=O)(O)OC[C@H]3O[C@@H](n4cnc5c(N)ncnc54)[C@H](OP(=O)(O)O)[C@@H]3O)[C@@H](O)[C@H]2O)C=CC1; pH 7, 30 °C, apparent): 53 µM

B4
Km (CCCCC/C=C\C/C=C\C/C=C\C/C=C\CCCC(=O)O; pH 7.4, with: arachidonic acid): 29 µM

B5 (enzyme T248A)
Km (O=c1c(-c2ccc(O)cc2)coc2cc(O)ccc12; pH 7, 28 °C, not purified, with: MnCl2 10 mM): 54.1 µM

EP300 (Homo sapiens, UniProt Q09472)
Km (CC(=O)SCCNC(=O)CCNC(=O)[C@H](O)C(C)(C)COP(=O)(O)OP(=O)(O)OC[C@H]1O[C@@H](n2cnc3c(N)ncnc32)[C@H](O)[C@@H]1OP(=O)(O)O): 4.3 µM

acsA L233M (Pseudomonas chlororaphis)
Km (O=C(O)CCC(F)(F)F; pH 7): 950 µM

B6 (enzyme)
Km (O=C(O)[C@@H](O)[C@@H](O)[C@H](O)[C@H](O)CO; pH 8.5, with: NAD): 630 µM

B7 (enzyme C434A)
Km (Nc1ncnc2c1ncn2[C@@H]1O[C@H](COP(=O)(O)OP(=O)(O)OP(=O)(O)O)[C@@H](O)[C@H]1O; pH 8.5, 25 °C, apparent, anoxic, with: L-Thr 10 mM): 108 µM

enzyme (Bacillus subtilis, UniProt O31986)
Km (CC(=O)N[C@H]1[C@@H](OP(=O)(O)OP(=O)(O)OC[C@H]2O[C@@H](n3ccc(=O)[nH]c3=O)[C@H](O)[C@@H]2O)O[C@H](CO)[C@@H](O)[C@@H]1O; pH 7.5, with: SunA): 12 µM

B8 (efeB)
Km (Nc1c(S(=O)(=O)O)cc(Nc2cccc(S(=O)(=O)CCOS(=O)(=O)O)c2)c2c1C(=O)c1ccccc1C2=O; pH 4, 25 °C, apparent): 40 µM

dxs (Escherichia coli, UniProt P77488)
Km (O=C(CO)[C@@H](O)[C@H](O)COP(=O)(O)O; with: ThDP): 38 µM

HNL E79H/K236M/T11G (Hevea brasiliensis)
Km (CC(=O)Oc1ccc([N+](=O)[O-])cc1; pH 7.2, 22 °C): 710 µM

CYP2J2 L2A (Homo sapiens)
Km (CCCCC/C=C\C/C=C\C/C=C\C/C=C\CCCC(=O)O): 131 µM

B9 (PDE10A)
Km ([H][C@@]12COP(=O)(O)O[C@@]1([H])[C@@H](O)[C@H](n1cnc3c(=O)[nH]c(N)nc31)O2): 5.4 µM

B10 (enzyme K56A)
Km (N[C@H](COP(=O)(O)O)Cc1c[nH]cn1; pH 7.8, 25 °C): 607 µM
